Assay results collected from several papers.
Every numbered part comes from another study and shows a few of its results, in no order. Positions count from the first letter of the parent shown.

Series 1 — method: universal PBM; molecule type: double-stranded DNA, one strand shown; medium: in vitro; tested at: not given; direction: higher = stronger binding; quantity: E-score
Target: Sal-like protein 4, full length isoform B (SALL4, Homo sapiens, UniProt Q9UJQ4-2, residues 1-616)
Notes: 8-mer, flanks averaged, mean of replicates
CATTGTCA: 0.0292
CGCAGCTC: -0.228
ATCTGCCA: -0.0477
CCGTCAAC: -0.0768
TACCCCTA: 0.01
CCAAACCA: -0.0591
GCACTAGA: -0.0162
AGAAAGAT: 0.169
ATCGTTTC: 0.107
AACAGAAT: 0.111
CGGTCTGA: -0.218
AAATAAGA: 0.306
CCGACTTC: -0.303

Series 2 — method: RNA Bind-n-Seq; molecule type: RNA; medium: in vitro; tested at: not given; notes: RNA with constant flanks, ends assumed; reference: input RNA pool; direction: higher = stronger binding; quantity: bound/input enrichment
Target: RING finger protein unkempt homolog, zinc fingers 1-6, GST-SBP tag (UNK, Homo sapiens, UniProt Q9C0B0, residues 30-357)
Residues (chain): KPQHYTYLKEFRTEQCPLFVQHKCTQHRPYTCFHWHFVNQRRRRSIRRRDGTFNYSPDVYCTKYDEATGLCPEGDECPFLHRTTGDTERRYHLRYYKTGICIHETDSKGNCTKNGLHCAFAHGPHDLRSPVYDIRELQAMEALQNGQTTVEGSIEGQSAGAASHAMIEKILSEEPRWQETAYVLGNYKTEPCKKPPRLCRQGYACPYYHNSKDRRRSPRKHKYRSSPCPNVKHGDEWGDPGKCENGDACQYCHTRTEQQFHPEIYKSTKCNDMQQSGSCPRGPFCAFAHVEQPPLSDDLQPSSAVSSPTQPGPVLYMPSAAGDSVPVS
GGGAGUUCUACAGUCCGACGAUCUUGACAAAAGUACCAUGGAGUUUUAUGAGUCAGCAUAUUUUAUUGUUCUUAUUCCUUCAACCGUUAUUACAGUAAUUUUCCUCUUCUUCUGGCUUUUCAUGAAAGAAACAUUAUAUGAUGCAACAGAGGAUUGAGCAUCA: 0.341 ratio
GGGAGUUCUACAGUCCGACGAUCAUCUAUGCUAACCUGUCUGAUGAAAAGGCUUUCGUGUUUUCAGUCGCCUUGGCAGAAAUAAACCGAAAAAUUAUCAAUCAAAGACUUAUUCUCUGAUACUUGUUUGCAAAAUCUGCUGAACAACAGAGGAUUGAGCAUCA: 0.124 ratio
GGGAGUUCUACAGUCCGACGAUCGUUAGCCAAUCAUUGCAGCAUUACUUAGAGCUCGGAAGGCAAGAGCUUUUUAAGAUUCUGCACCGUAUUUUGUUAAAUGGCGAAACCCGUGAGGCUGCUCUCAGUUACAUGGCGGCUGUCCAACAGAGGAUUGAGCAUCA: 0.489 ratio
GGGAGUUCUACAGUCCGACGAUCAAGAUUUGGAGAGGAUGUGCUUGAAGUAAUCAAGGACUCUAAUCCUGUAGACAAGUGCAAAUCCGAUCCAAACAAGGCAUAUAUUCAGAUUACCUACGUGGAGCCCUUCUUUGACACCUACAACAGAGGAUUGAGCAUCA: 0.134 ratio
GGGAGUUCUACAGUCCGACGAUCAGUAUAUGUAAAUGUCUGUUUUUCAUAAUUGCUCUUUAUAUUGUGUGUUAUCUGACAAGACCGUUAUUUAAGAAACAUGGGAAUUGCAGAAAUGACUGCAGUGCAGCAGUAAUUAUGGUGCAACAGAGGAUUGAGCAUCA: 0.229 ratio
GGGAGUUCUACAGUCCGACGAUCUUGAGCAUACAUAUACAAUGUGUUUCAAAUGCUGCUUGUAAAAUUAAACCAUCAUCCCGAACCGAGUUAAUUUAUUAUAAUCAAGCUACAAAUAGGUUUUCUUAAACCAGAGAUGCACUGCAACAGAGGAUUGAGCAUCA: 0.244 ratio
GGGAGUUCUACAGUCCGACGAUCUGUAGAUUUAUCCUAAAUUUGCUGUAGCAGUGGGGAAGAGGGACGGAUAUUUUUAAUUGAUCCGUGUUUUUUUCCUCACAUUUGACAUGACUGAUAACAGAUAAUUAAAAAAAGAGAAUACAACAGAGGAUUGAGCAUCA: 0.276 ratio
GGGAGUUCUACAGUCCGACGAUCGGGACAAUUCAUCUCUUUCGAAAACCACAAAGAUCCUUUUUUGGCAAGUUGUUACGGGAAUUCCGACUUGUAGCAGCUGACCGAAGGUCCUGGAAGAUACUGCUCUUUGGUGUAAUAAACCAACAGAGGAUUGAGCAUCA: 0.099 ratio
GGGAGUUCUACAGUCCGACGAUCCCAGAAGCUGUUGAAGUCUUGCUGAAUUAUGCAUACACGGCUCAGUUGAAAGCUGAUAAGGAAUCCGUAAAAGAUGUUUAUUCUGCAGCCAAGAAGCUGAAGAUGGACCGAGUCAAGCAGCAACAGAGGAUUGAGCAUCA: 0.105 ratio
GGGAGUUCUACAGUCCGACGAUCUAAAUCCAUUUGUAAGCAUUUAUCCCAUAUAUUUUAAAUUCAAGAAAAAUUGUGUUUAUCUUCCGAAUUUUGUAUUCAAUACUUUAUGUACUAUGUGACUCAUGCUUCUGGAUAAAUAAACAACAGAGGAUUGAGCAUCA: 1.61 ratio
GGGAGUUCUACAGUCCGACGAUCGAUGUAGUAGUCAACAUUUUUAUUAACAGUUUUGGAUCCAUUCAAGAAACAACAAUGGACUACCGAGUUAACAUCUUCCUGAGACAAAAAUGGAAUGACCCCAGGCUGAAGCUCCCCAGUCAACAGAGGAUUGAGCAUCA: 0.52 ratio

Series 3 — method: DHFR PCA, deep sequencing; medium: yeast; added: (+)-ABA 0.0091 µM; reference: wild-type fitted maximum; direction: higher = stronger binding; quantity: relative binding score
Target: ABI1, truncated, D143A, DHFR fusion (Arabidopsis thaliana)
Notes: methotrexate growth selection, single substitutions
Starting sequence: PYL1, truncated, DHFR fusion (Arabidopsis thaliana); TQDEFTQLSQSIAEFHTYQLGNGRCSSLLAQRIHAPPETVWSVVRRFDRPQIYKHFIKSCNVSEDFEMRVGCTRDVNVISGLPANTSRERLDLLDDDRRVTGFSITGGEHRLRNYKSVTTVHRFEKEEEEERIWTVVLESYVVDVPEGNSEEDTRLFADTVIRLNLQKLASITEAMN; partner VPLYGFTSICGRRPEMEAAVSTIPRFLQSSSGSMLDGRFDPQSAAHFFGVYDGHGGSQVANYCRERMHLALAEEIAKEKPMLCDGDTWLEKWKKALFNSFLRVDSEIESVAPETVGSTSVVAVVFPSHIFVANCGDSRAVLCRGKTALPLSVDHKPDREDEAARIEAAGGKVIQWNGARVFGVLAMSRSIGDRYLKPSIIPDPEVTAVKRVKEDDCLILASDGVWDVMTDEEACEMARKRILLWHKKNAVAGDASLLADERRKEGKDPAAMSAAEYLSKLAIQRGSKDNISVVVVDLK
T120E: -10.1%
D65V: 3.89%
V70N: -3.85%
A35L: -1.03%
V62Y: 3.75%
G21A: 27.1%
F66C: 1.67%
R90N: 7.08%
L112N: -7.67%
V40K: -0.395%
V118N: -3%
G102D: 7.72%
L28K: -3.49%
R163Y: -9.67%
G71N: 1.03%
R155P: -3.44%

Series 4 — method: protein-binding microarray; molecule type: double-stranded DNA, one strand shown; medium: in vitro; tested at: 250 nM; notes: 60-bp whole probe; added: salmon DNA 0.4 mg/ml; reference: random background probes; direction: higher = stronger binding; quantity: log fluorescence; constant ends, left off below: GCCTAGCAC … GTCTTGATTCGCTTGACGCTGCTG
Target: Interferon regulatory factor 7, full length, phosphomimetic (IRF7, Homo sapiens, UniProt Q92985, residues 1-503, S101K/S471D/S472D/S475D/S476D/S477D/S483D/S484D/S487D)
UniProt Q92985, sequence (whole entry, unmodified, looked up): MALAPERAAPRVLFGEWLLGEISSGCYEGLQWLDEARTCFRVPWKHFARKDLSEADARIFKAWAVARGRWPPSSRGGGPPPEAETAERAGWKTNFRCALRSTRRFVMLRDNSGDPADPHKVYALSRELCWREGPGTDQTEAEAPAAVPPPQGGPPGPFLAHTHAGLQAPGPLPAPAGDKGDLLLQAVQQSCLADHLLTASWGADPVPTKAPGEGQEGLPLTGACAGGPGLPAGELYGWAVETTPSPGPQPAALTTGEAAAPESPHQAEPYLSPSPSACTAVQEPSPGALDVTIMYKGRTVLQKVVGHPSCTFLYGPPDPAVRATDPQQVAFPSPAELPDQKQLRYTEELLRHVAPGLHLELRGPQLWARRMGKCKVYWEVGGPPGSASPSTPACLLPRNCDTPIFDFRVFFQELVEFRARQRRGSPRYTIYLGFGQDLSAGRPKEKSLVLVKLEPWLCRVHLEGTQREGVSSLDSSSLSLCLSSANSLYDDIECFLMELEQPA
TACGGACTGGGGTTTCGGGACGTGCTA: 1.25 z-score
GTTCTTTTCAGTCCCCTCTTGTGCTAG: 2.37 z-score
TCAGCTTTCCTTCATGCACTGTGCTAG: 0.489 z-score
GACGGTTTCGGGCTGGGGACGTGCTAG: 3.21 z-score
TGGAGAGCATATTCTGTGACGTGCTAG: -1.08 z-score
TTAGCTTTCAGTTTCGATTAGTGCTAG: 8.63 z-score
GATGATATCAGACTGGAGACGTGCTAG: -0.786 z-score
TTAGGTCTCCTTCTCCTTTGGTGCTAG: 0.518 z-score
TCTAATTTACTTTGGTTGGCGTGCTAG: 0.215 z-score
TTAAATATCGGGTTTCGATTAGTGCTA: 7.18 z-score
TTAGGTTTCCTTTTCCTATAGTGCTAG: 7.55 z-score
TTAGGTTTCCTACTGATTTAGTGCTAG: 0.98 z-score
TTAGATATCCTTTTCCTTTAGTGCTAG: 0.943 z-score
GACGGACTGGGACTGGGGAGGTGCTAG: -0.583 z-score

Series 5 — target: CCNE2, cyclin fold, Cln2 fusion (human); method: yeast growth competition, sequencing; medium: yeast; notes: weak parent motif; reference: not given; direction: higher = stronger binding; quantity: normalised enrichment score
Starting sequence: PKN2 docking peptide (human); VSAVQKLDFSDTM; partner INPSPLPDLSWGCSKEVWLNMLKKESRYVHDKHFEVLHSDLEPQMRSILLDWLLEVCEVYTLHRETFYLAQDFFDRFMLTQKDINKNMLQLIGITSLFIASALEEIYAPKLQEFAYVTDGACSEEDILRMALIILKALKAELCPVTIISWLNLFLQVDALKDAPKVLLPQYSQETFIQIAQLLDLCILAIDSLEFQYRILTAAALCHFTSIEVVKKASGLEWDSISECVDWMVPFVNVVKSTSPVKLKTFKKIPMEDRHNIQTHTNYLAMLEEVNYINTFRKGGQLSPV
K6L: -0.434
S2I: 0.365
F9K: -0.488
V1R: -0.123
K6D: -0.358
F9R: 0.204
V1H: 0.333
F9I: 0.141
M13P: -0.584
K6Q: 0.707
M13F: -0.164
S10P: 0.558
A3D: -0.684
S10A: -0.0459
V1C: 0.506
T12S: 0.38
A3N: -0.37
V4S: -0.479

Some of these lines once more (series 4):
GACGGTTTCGGGCTGGGGACGTGCTAG: 3.21 z-score
TGGAGAGCATATTCTGTGACGTGCTAG: -1.08 z-score
TTAGCTTTCAGTTTCGATTAGTGCTAG: 8.63 z-score
GATGATATCAGACTGGAGACGTGCTAG: -0.786 z-score
TTAGGTCTCCTTCTCCTTTGGTGCTAG: 0.518 z-score
TCTAATTTACTTTGGTTGGCGTGCTAG: 0.215 z-score
TTAAATATCGGGTTTCGATTAGTGCTA: 7.18 z-score
TTAGGTTTCCTTTTCCTATAGTGCTAG: 7.55 z-score
TTAGGTTTCCTACTGATTTAGTGCTAG: 0.98 z-score
TTAGATATCCTTTTCCTTTAGTGCTAG: 0.943 z-score
